Measured values collected from several papers.
Every numbered part comes from another study and shows a few of its results, in no order.
Chain of UniProt Q16584 (whole entry, looked up): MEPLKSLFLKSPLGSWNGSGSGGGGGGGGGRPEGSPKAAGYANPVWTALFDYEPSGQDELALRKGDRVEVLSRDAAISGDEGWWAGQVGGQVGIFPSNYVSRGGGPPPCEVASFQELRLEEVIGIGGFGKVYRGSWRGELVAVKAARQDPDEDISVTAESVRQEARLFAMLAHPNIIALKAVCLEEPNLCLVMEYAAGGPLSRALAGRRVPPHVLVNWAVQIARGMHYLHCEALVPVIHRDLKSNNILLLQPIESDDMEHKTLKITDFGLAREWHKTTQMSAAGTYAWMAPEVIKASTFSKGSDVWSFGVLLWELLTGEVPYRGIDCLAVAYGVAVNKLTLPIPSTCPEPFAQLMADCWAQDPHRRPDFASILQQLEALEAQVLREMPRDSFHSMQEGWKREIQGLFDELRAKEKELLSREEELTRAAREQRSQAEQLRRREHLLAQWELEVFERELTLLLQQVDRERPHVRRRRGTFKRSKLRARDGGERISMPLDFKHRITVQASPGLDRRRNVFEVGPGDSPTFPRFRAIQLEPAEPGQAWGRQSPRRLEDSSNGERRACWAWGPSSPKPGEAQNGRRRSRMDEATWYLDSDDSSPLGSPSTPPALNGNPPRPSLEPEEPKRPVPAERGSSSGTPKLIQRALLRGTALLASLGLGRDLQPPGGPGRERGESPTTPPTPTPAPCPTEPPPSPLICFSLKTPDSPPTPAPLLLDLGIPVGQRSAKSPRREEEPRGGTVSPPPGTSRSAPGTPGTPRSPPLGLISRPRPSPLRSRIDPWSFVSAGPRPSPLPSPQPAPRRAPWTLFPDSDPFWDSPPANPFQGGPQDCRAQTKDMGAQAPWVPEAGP
Chain of UniProt P36507 (whole entry, looked up): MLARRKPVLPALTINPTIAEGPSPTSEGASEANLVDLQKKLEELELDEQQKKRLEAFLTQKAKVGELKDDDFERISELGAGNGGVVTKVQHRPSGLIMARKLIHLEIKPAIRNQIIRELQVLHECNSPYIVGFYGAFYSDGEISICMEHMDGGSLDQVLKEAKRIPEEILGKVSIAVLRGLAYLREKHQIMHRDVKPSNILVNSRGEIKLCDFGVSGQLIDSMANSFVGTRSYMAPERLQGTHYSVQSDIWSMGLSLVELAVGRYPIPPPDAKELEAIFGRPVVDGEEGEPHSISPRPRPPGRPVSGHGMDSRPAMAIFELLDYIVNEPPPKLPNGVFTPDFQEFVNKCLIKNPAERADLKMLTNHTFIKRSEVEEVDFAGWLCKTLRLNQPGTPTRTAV
Chain of UniProt Q9NRM7 (whole entry, looked up): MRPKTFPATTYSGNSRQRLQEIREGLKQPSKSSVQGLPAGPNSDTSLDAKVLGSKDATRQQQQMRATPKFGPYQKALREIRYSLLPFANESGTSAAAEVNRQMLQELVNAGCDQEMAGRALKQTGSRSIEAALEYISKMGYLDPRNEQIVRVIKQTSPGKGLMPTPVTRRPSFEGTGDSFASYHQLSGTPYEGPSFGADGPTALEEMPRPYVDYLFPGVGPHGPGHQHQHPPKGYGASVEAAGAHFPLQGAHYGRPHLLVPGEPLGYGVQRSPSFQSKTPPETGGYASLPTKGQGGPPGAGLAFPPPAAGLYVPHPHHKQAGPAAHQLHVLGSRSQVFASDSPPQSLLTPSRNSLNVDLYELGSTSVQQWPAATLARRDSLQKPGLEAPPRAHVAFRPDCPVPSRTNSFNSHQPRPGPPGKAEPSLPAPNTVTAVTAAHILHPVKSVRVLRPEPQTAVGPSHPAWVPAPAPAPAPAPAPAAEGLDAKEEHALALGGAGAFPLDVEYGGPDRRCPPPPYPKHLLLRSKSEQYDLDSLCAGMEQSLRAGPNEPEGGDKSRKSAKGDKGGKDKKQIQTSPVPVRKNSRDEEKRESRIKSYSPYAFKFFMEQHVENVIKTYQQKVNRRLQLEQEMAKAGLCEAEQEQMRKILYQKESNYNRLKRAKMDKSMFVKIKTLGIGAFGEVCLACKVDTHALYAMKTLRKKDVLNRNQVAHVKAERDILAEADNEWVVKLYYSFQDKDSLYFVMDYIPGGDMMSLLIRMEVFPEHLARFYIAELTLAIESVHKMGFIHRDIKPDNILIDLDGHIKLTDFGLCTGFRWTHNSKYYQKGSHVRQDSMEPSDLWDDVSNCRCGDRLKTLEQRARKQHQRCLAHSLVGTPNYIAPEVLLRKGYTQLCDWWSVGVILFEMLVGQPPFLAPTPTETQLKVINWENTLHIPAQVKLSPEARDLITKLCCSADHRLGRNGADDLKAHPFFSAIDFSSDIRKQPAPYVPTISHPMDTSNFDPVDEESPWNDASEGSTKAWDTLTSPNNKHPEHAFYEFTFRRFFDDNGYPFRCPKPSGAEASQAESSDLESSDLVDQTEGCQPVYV
Chain of UniProt Q08345 (whole entry, looked up): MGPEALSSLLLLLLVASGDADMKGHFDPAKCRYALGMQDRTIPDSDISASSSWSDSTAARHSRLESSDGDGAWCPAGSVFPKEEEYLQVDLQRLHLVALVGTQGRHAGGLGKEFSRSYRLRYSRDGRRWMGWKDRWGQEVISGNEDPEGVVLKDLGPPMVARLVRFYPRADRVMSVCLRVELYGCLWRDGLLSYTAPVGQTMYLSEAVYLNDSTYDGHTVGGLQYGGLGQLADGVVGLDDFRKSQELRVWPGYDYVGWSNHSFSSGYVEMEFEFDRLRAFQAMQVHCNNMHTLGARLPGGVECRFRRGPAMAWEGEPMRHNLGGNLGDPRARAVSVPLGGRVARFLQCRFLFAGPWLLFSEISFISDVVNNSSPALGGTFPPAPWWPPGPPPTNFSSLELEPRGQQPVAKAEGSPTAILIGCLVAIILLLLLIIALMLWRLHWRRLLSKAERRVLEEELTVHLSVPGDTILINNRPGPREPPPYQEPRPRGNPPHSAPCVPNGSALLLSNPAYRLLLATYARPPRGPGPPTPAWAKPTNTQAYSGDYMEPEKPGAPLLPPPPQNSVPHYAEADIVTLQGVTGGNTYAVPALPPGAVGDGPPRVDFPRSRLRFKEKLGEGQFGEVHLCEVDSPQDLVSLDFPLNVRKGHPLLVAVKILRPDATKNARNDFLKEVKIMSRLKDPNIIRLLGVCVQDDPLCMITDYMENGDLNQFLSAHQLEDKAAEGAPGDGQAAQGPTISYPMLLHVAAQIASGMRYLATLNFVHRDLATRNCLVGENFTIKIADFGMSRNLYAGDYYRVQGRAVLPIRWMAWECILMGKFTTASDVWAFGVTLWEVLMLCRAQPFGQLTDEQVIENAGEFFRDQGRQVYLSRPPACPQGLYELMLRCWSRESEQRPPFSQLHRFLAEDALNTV

Block 1 — effect on: cell-free assay; method: competition with immobilised ligand; tested at: 1 µM; quantity: remaining binding
Structure (SMILES): CC1=C(C#N)C(c2ccc3c(c2)c(NC(=O)c2ccccc2C)nn3C)C(C#N)=C(C)N1
MAP2K2 (Homo sapiens, UniProt P36507): 82%
Tyrosine-protein kinase ABL1, phosphorylated (ABL1, Homo sapiens, UniProt P00519, M351T): 94%
LATS2 (Homo sapiens, UniProt Q9NRM7): 100%
MAP3K11 (Homo sapiens, UniProt Q16584): 96%
DDR1 (Homo sapiens, UniProt Q08345): 74%

Block 2 — effect on: enzyme activity; action: inhibitor; tested at: 0.5 µM; reference: control; quantity: remaining activity
Target: Ephrin type-B receptor 4 (EPHB4, Homo sapiens, UniProt P54760)
Chain of UniProt P54760 (whole entry, looked up): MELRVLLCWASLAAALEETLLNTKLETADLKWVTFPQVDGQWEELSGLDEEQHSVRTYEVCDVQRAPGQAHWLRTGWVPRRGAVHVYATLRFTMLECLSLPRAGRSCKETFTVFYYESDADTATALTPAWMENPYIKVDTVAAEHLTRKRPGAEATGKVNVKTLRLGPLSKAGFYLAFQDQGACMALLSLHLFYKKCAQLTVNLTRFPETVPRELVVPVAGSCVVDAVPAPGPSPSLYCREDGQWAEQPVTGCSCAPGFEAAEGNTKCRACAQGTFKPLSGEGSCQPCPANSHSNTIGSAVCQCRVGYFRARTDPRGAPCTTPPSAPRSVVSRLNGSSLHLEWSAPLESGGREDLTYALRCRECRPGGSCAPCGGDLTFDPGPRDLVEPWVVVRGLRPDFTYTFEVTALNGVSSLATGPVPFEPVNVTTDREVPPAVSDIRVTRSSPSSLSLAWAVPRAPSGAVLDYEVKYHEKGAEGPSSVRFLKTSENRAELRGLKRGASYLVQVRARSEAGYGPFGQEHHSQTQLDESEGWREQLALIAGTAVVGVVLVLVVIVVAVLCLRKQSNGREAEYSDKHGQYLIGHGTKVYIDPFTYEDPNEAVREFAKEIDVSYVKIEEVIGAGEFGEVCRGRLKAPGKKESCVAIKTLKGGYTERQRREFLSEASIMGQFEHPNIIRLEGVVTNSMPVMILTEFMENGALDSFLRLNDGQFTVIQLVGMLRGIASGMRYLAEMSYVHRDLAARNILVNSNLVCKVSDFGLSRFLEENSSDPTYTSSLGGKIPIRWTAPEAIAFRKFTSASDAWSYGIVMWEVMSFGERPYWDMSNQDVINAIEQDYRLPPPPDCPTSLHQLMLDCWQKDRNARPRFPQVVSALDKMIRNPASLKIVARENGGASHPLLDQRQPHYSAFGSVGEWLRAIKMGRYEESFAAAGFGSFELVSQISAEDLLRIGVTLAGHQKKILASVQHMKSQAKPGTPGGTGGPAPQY
COc1cc2ncnc(Nc3ccc(Oc4ccccc4)cc3)c2cc1OC: 85.5%
Cc1cccc(-c2[nH]c(C(C)(C)C)nc2-c2ccc3c(c2)OCO3)n1: 91.4%
O=C1NC(=O)C(c2cn(CCCO)c3ncccc23)=C1c1cnccn1: 95.2%
O=C(Nc1cccc(Nc2cc(Nc3cccc(C(F)(F)F)c3)ncn2)c1)C1CC1: 97.8%
COc1ccc(C(=O)Nc2sc3c(c2C(N)=O)CCCC3)cc1OC: 93.9%
Nc1[nH]nc2nc3ccccc3nc12: 84.9%
Cc1ccc(NC(=O)c2ccc(CN3CCN(C)CC3)cc2)cc1Nc1nc(-c2cccnc2)cs1: 97.3%
CN(C)c1ccc(C=C2C(=O)Nc3ccccc32)cc1: 97.4%
NCCNc1ncc(C(N)=O)c(Nc2cccc(C(F)(F)F)c2)n1: 85.5%
Cn1sc(=O)n(Cc2ccccc2)c1=O: 100%

Block 3 — species: mouse; sample: microsomes or S9; tested at: 2 µM; time: 0.5 h; quantity: remaining compound
Cc1c(C(=O)OC(C)C)sc2ncnc(N3CCCCC3)c12: < 1%
O=C(c1cccnc1Cl)N1CCCCC1c1ccccc1 (stereo not drawn): 10.2%
Cc1nc2n(n1)CC(Nc1ccc3nccnc3n1)CC2 (stereo not drawn): 81.8%
Nc1nnc2sc3cc(Br)ccc3n12: 0%
Nc1nc(F)c2ncn(C3CC(O)C(CO)O3)c2n1 (stereo not drawn): 37.7%

Further values, each from its own experiment
CC(C)n1cnc(-c2ccc(F)cc2)c1-c1ncc(C(=O)Nc2ccc(N3CCN(C)CC3)cc2)[nH]1
patients with pneumonia (phase 2a trial; idiopathic pulmonary fibrosis patients; 60 mg once daily, grade 5 emergent event): 0%

A few entries again (block 3):
Cc1nc2n(n1)CC(Nc1ccc3nccnc3n1)CC2 (stereo not drawn): 81.8%
Nc1nnc2sc3cc(Br)ccc3n12: 0%
Nc1nc(F)c2ncn(C3CC(O)C(CO)O3)c2n1 (stereo not drawn): 37.7%
